# Measured values of several laboratories.
# Lines come from different studies, so protocols differ. Several values in a cell are separate wells, animals, samples, runs or records. Numbers after ± are the reported error.
# Chain of UniProt Q92731 (whole entry, looked up): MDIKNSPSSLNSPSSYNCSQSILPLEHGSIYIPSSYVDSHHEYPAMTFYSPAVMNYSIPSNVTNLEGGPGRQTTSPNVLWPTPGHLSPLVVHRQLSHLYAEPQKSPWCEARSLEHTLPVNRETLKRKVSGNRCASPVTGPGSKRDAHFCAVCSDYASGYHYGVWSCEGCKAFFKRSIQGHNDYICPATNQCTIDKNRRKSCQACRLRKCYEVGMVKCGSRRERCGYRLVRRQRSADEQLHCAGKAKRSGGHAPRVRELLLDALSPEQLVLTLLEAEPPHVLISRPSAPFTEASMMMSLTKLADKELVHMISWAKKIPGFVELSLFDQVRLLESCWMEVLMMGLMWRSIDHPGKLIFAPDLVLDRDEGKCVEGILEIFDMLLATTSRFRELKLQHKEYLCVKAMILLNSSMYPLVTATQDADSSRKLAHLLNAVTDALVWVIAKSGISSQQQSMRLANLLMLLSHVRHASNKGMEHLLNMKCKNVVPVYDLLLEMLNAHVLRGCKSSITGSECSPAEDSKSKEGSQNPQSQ
SMILES,target or system,test,test system,conditions,scale,endpoint,result
CCOc1c([C@H](C)n2nc(C)c3c(N)ncnc32)cc(Cl)c(F)c1[C@@H]1CNC(=O)C1,,ECG,previously treated B-cell malignancy patients,"oral, 30 mg once daily, baseline below thresholds",,observations with HR above 100 bpm,2.4%
COc1ccc(CCN(C)CCCC(C#N)(c2ccc(OC)c(OC)c2)C(C)C)cc1OC (centres unmarked),Nedd8-cullin1 interaction,"neddylation, AlphaScreen",,100 µM,,inhibition,-38.8%
CCCOc1ccc(-c2ccc(C#N)cc2)cc1,,,"Sprague-Dawley rat, female, fetus","5000 ng/mL in perfusate, 50 (unit not given), high dose, mixture of 21 LCMs",,median fetal accumulation,16.5 ng/g
CC(C)N(CCCCOCC(=O)NS(C)(=O)=O)c1cnc(-c2ccccc2)c(-c2ccccc2)n1,,population PK model,"healthy human, plasma",oral,,k12 rate constant,0.07 h⁻¹
COc1cccc(OC)c1-c1cc(C(=O)NC2(C(=O)O)C3CC4CC(C3)CC2C4)nn1-c1ccc(C(=O)N(C)CCCN(C)CCCN(C)C(=O)CN2CCN(CC(=O)[O-])CCN(CC(=O)[O-])CCN(CC(=O)[O-])CC2)cc1C(C)C.[177Lu+3] (centres unmarked),,,"mouse, HT-29 xenograft","4 h post injection, biodistribution",baseline: tumour over lung uptake,tumour-to-lung ratio,4.63
COc1ccc(-c2oc3c(CC=C(C)C)c(OC4OC(CO)C(O)C(O)C4O)cc(O)c3c(=O)c2OC2OC(C)C(O)C(O)C2OC2OC(CO)C(O)C(O)C2O)cc1 (centres unmarked),"Estrogen receptor beta (ESR2, Homo sapiens, UniProt Q92731)","array formation, agonist",GFP-ERβ PRL-HeLa,1 h,,EC50,1.86 µM
Cc1cc(-c2nccc3c2ccn3CC(=O)Nc2ccc(-c3cnccn3)cn2)ccn1,,,human,"20 mg once daily, multiple ascending dose",,subjects with any TEAE,66.7%
O=C(N[C@H](Cc1c[nH]c2ccccc12)C(=O)Nc1ccncc1)c1ccc(N2CCN(c3ccc(F)c(F)c3)CC2)cc1F,,,"Swiss Webster mouse, female, heart","oral, 50 mg/kg, 2 h, 20% HPβCD vehicle",,concentration,520 nM
COc1ccc2c(=O)n(C)c(-c3ccccc3)nc2c1,,,"Sprague-Dawley rat, male, spleen","oral, 30 mg/kg, 0.5 h",baseline: spleen over plasma,tissue/plasma ratio,4.22
N#Cc1ccc2c(c1)[C@H]1CCCN(C(=O)c3ccc4[nH]cnc4c3)[C@H]1C2,,,"human, female","80 mg, day 7",,androstenedione level,9.1 nmol/L
O=C(Nc1cnccc1Cl)N1CCN(Cc2ccc3c(c2)OC(F)(F)O3)CC1,,multiple ascending dose,elderly men and women,"100 mg, treatment-emergent adverse events",,back pain incidence,33.3%
Cc1cc(Nc2ncnc3ccc(NC4=NC(C)(CO)CO4)cc23)ccc1Oc1ccn2ncnc2c1 (centres unmarked),,,"healthy volunteers, plasma","oral, 300 mg tucatinib, day 1",,"%AUCextrap, median",4.12%
Cc1cccc(CNC(=O)c2cn(CCNC(=O)c3ccccc3S)c3cc4c(cc3c2=O)OC(F)(F)O4)n1,,,"Sprague-Dawley rat, male, plasma","intravenous, 5 mg/kg of parent drug",,Cmax,269 ± 48.7 ng/mL
CC(C)=CCC/C(C)=C/C(=O)O.Cc1cc(/C=C/C#N)cc(C)c1Nc1ccnc(Nc2ccc(C#N)cc2)n1,,,Capryol 90,,,kinetic solubility,~50 mg/mL
Cc1c2oc3c(C)ccc(C(=O)N[C@@H]4C(=O)N[C@H](C(C)C)C(=O)N5CCC[C@H]5C(=O)N(C)CC(=O)N(C)[C@@H](C(C)C)C(=O)O[C@@H]4C)c3nc-2c(C(=O)N[C@@H]2C(=O)N[C@H](C(C)C)C(=O)N3CCC[C@H]3C(=O)N(C)CC(=O)N(C)[C@@H](C(C)C)C(=O)O[C@@H]2C)c(N)c1=O,,"population PK, three-compartment",human,,,intercompartmental clearance Q2,8.1 L/h/70 kg
Cl.[2H]C([2H])([2H])CC(=O)c1cnc(NC(=O)C2CC2)cc1Nc1cccc(-c2ncn(C([2H])([2H])[2H])n2)c1OC,,geometric mean,human,"oral, 5 mg single dose, fasted, liquid",,elimination rate constant,2.22e-05 s⁻¹
CCn1ncc2c1-c1cnc(N)c(c1)O[C@H](C)c1cc(F)ccc1-c1nn(C)nc1C2,,,"female athymic nude mice, sample B PDX","oral, 0.2 mg/kg twice daily for 5.5 days, 12 h",,unbound plasma trough concentration,0.3 ± 0.02 nM
c1ccc(-c2nc(N3CCN(c4ccccn4)CC3)c3ccccc3n2)nc1,,,Japanese Pharmacopoeia disintegration test solution 2,pH 6.8,,kinetic solubility,0.07 mg/mL
CN(C(=O)n1cnc(-c2cccnc2)c1)[C@H]1CC[C@H](O)CC1,,,"rat, hippocampus","oral, 10 mg/kg daily for 5 days, 48 h",,tissue concentration,14.8 ± 1.4 ng/g
Cc1ccc(Sc2ccccc2N2CCNCC2)c(C)c1,,item: Dizziness,healthy adult women,"oral, 5 mg daily, 12 days",,participants with TEAE,0%
CO[C@H]1C[C@@H]2CC[C@@H](C)[C@@](O)(O2)C(=O)C(=O)N2CCCC[C@H]2C(=O)O[C@H]([C@H](C)C[C@@H]2CC[C@@H](O)[C@H](OC)C2)CC(=O)[C@H](C)/C=C(\C)[C@@H](O)[C@@H](OC)C(=O)[C@H](C)C[C@H](C)/C=C/C=C/C=C/1C,,,healthy adult horses,"oral, 0.06 mg/kg, 24 h",,rectal temperature,37 ± 0.4 °C
CC(=O)O[C@H]1C(=O)[C@@]2(C)[C@H]([C@H](OC(=O)c3ccccc3)[C@]3(O)C[C@H](OC(=O)[C@H](O)[C@@H](NC(=O)c4ccccc4)c4ccccc4)C(C)=C1C3(C)C)[C@]1(OC(C)=O)CO[C@@H]1C[C@@H]2O,,item: Alopecia,patients with advanced solid tumours,"intravenous, dose not given, grade 1 and 2, possibly related to drug",,adverse event incidence,28%
CCCCOc1ccc([C@H]2CC[C@H](CCC)CC2)c(F)c1F,,,"rat, fetus","10 ng/mL in perfusate, low dose, mixture of 21 LCMs",,median fetal accumulation,0.615 ng/g
COc1ccc2c(c1)CN(C(=O)CCN1CCC(Cc3ccccc3)CC1)CC[S@@+]2[O-],,telemetry,conscious male beagle dogs,"intravenous, 8 mg/kg, 1 h",,QT interval,209 ± 38 ms
COc1ccc([C@@H](O)c2cc(-c3ncnc4cc(N5CCOCC5)ccc34)c(F)cc2Cl)nn1,,,locally advanced rectal cancer patients,"100 mg, together with: capecitabine and radiotherapy",,drug-related lymphocyte count decrease,33%
FC(F)(F)c1ccc(CNc2ccc(Cc3c[nH]c4ncc(Cl)cc34)cn2)cn1,,item: memory impairment,"human, advanced solid tumours, non-TGCT cohort","oral, 1000 mg/day, any grade",,treatment-related adverse events,0%
Cc1nc2cccc(OCC(C)(C)C(=O)NC(C)C)c2c(N)c1C(=O)O,,,"Sprague-Dawley rat, male, plasma","oral, 100 mg/kg, day 7 over day 1, 7-day repeated dosing",baseline: day 7 over day 1,Cmax ratio,0.8 ± 0.48
Cn1cc([C@H]2C[C@H]3CSC(N)=N[C@@]3(c3ccc(F)cc3F)CO2)cn1,,,"male 129/SVE mouse, plasma","subcutaneous, 10 mg/kg, 6 h",,plasma concentration,223 nM
Cn1cc(Nc2nccc(-c3ccc4c(c3)CN(C3COC3)CC[C@H]4NC(=O)c3cn(C(C)(C)C)nn3)n2)cn1,,,"human, whole blood","50 mg twice daily, day 7",baseline: pre-dose baseline,B cell count change,130%
C[C@@H]1CCO[C@H]2Cn3cc(C(=O)NCc4ccc(F)cc4F)c(=O)c(O)c3C(=O)N12,,,"human paediatric patients, weight 6 to under sample A kg, plasma","oral, 12.8 mg granules, 24 h, steady state, geometric mean, population PK post-hoc, N 6",,trough concentration (C24),692 ng/mL
Oc1ccc(/C=C/c2cc(O)cc(O)c2)cc1,,,"male Wistar rats, plasma","oral, 10 mg/kg",,Vd/F,52.5 ± 10.2 L/kg
CNCc1ccc(-c2[nH]c3cc(F)cc4c3c2CCNC4=O)cc1,,item: Asthenia/fatigue,human patients,"oral, 600 mg twice daily, grade 3",,patients with adverse event,3.8%
O=C(Nc1nc2cccc(-c3ccc(CN4CCS(=O)(=O)CC4)cc3)n2n1)C1CC1,,item: pharyngitis,human rheumatoid arthritis patients,"oral, 150 mg once daily, 4 weeks, regardless of relatedness",,treatment-emergent adverse events,0%
Cc1ccc([C@@H]2O[C@H](CO)[C@@H](O)[C@H](O)[C@H]2O)cc1Cc1ccc(-c2ccc(F)cc2)s1,,,Japanese type 2 diabetes patients,"200 mg, day 6, 24 h urine collection",baseline: baseline,urinary sodium excretion change,3.64 mEq
CNC(=O)c1cccc(-c2ccc([C@@H](O)[C@H]3O[C@H](CO)[C@@H](O)[C@H](O)[C@@H]3O)c(C)c2)c1,,,"Sprague-Dawley rat, male, plasma","oral, 10 mg/kg",,AUC(all),80.9 ng·h/mL and 83.6 ng·h/mL
O=C(Nc1ccc(OC(F)(F)Cl)cc1)c1cnc(N2CC[C@@H](O)C2)c(-c2ccn[nH]2)c1,,"per treatment cycle, item: hemoglobin decrease",human patients,"oral, dose not given, 28 day cycle",,grade ≥3 event rate,0.1%
CN1C(=O)[C@@H](NC(=O)c2nnc(Cc3ccccc3)[nH]2)COc2cccnc21,,phase I single ascending dose,"human, male and female","oral, 30 mg, fasted",,medical device site reaction incidence,50%
c1csc(CNc2cc[nH]n2)c1,,"DNA damage, alkaline comet","Hsd:ICR(CD-1) mice, male, liver","oral gavage, 500 mg/kg/day, 3 days",,tail DNA (mean),1.4%
CNC(=O)c1cc(Oc2ccc(NC(=O)Nc3cc(C(C)(C)C)nn3-c3ccc4ncccc4c3)c(F)c2)ccn1,,item: worst grade 2,human,"oral, dose not given, cycles 1 and 2, High AUC(0-4 h) subgroup",,patients with musculoskeletal disorder AE,11%
CCN1/C(=C/C(C)=O)Sc2ccc(F)cc21,,,cynomolgus monkey,"oral, 30 mg/kg, 0.5 h post-dose",,PR interval,90 ± 3 ms
C=CCN1CC(=O)N2[C@@H](Cc3ccc(O)cc3F)C(=O)N(Cc3cccc(N4CC(N5CCN(CC)CC5)C4)n3)C[C@@H]2N1C(=O)NCc1ccccc1,,item: Nausea,advanced solid tumour patients,"oral, 120 mg twice daily, expansion part, grade ≥3",,treatment-related adverse events,0%
C[C@@H]1CC(=O)NN=C1c1ccc(NN=C(C#N)C#N)cc1,Nedd8-cullin1 interaction,"neddylation, AlphaScreen",,100 µM,,inhibition,64.3%
COc1ccc(-c2c(C)[nH]c3cc(OC)c(Cl)cc3c2=O)cc1,,,,pH 7.4,,kinetic solubility,< 2 µM
CC1(CNC(=O)[C@H](CN)NC(=O)c2ccc(C#Cc3ccccc3)cc2)NC(=O)NC1=O (some centres unmarked),,,aqueous buffer,pH 7.4,,thermodynamic solubility,859 µM

# For quick reference, copied from above:
SMILES,target or system,test,test system,conditions,scale,endpoint,result
CNC(=O)c1cccc(-c2ccc([C@@H](O)[C@H]3O[C@H](CO)[C@@H](O)[C@H](O)[C@@H]3O)c(C)c2)c1,,,"Sprague-Dawley rat, male, plasma","oral, 10 mg/kg",,AUC(all),80.9 ng·h/mL and 83.6 ng·h/mL
O=C(N[C@H](Cc1c[nH]c2ccccc12)C(=O)Nc1ccncc1)c1ccc(N2CCN(c3ccc(F)c(F)c3)CC2)cc1F,,,"Swiss Webster mouse, female, heart","oral, 50 mg/kg, 2 h, 20% HPβCD vehicle",,concentration,520 nM
CN1C(=O)[C@@H](NC(=O)c2nnc(Cc3ccccc3)[nH]2)COc2cccnc21,,phase I single ascending dose,"human, male and female","oral, 30 mg, fasted",,medical device site reaction incidence,50%
Cc1cc(Nc2ncnc3ccc(NC4=NC(C)(CO)CO4)cc23)ccc1Oc1ccn2ncnc2c1 (centres unmarked),,,"healthy volunteers, plasma","oral, 300 mg tucatinib, day 1",,"%AUCextrap, median",4.12%
Cc1nc2cccc(OCC(C)(C)C(=O)NC(C)C)c2c(N)c1C(=O)O,,,"Sprague-Dawley rat, male, plasma","oral, 100 mg/kg, day 7 over day 1, 7-day repeated dosing",baseline: day 7 over day 1,Cmax ratio,0.8 ± 0.48
